Measured values gathered from unrelated publications.
± marks the error that the study gave.

SMILES | test | system | setting | scale | quantity | value
COc1ccc(-c2c(C#N)c(N)nc3c2CCc2nc4c(cc2-3)c(C)nn4-c2ccccc2)cc1 | ABTS scavenging, absorbance |  | 6 min |  | EC50 | > 100 µg/mL
COC(=O)C[C@](O)(CCCC(C)(C)OC(C)=O)C(=O)O[C@@H]1C(OC)=C[C@]23CCCN2CCc2cc4c(cc2[C@H]13)OCO4 | immunofluorescence | BALB/c nude mouse, KP-4 xenograft, tumour | dose not given |  | Ki67 level | decreased
CC(C)C[C@@H]1NC(=O)[C@H](C(C)C)NC(=O)[C@H](CO)NC(=O)CNC(=O)CNC(=O)[C@H](CCCNC(=N)N)NC(=O)[C@@H]2CCCN2C(=O)[C@@H](NC(=O)CC[C@H](NC(=O)c2ccc(N(C)Cc3cnc4nc(N)nc(N)c4n3)cc2)C(=O)O)C(C)(C)SSC[C@@H](C(=O)O)NC(=O)CNC(=O)[C@H]([C@@H](C)O)NC(=O)[C@H](C(C)C)NC1=O |  | rat adjuvant arthritis | iv, 1 mg/kg once daily, day 14 |  | liver weight | 5.95 ± 0.195 g
Cc1ccc(/C=C/C(=O)O)cc1-c1cc2c(cc1C)C(C)(C)CCC2(C)C | RNA sequencing, refers to: Cyp26a1 mRNA | rat, brain | dose not given, 24 h, single dose | reference: vehicle | log2 fold change | 0.061
CC(=O)N[C@@H](Cc1c[nH]c2ccccc12)C(=O)NCC(=O)N[C@@H](C)C(=O)N[C@H]1CSCC(=O)Nc2ccc(cc2)N=Nc2ccc(c(S(=O)(=O)O)c2)-c2ccc(cc2S(=O)(=O)O)N=Nc2ccc(cc2)NC(=O)CSC[C@@H](C(=O)N[C@@H](C)C(=O)N[C@@H](CCC(N)=O)C(N)=O)NC(=O)[C@H](CCCNC(=N)N)NC(=O)[C@H](C)NC(=O)[C@H](C)NC(=O)[C@H](C)NC(=O)[C@H](CCC(=O)O)NC(=O)[C@H](CCCNC(=N)N)NC(=O)[C@H](C)NC(=O)[C@H](C)NC(=O)[C@H](C)NC(=O)[C@H](CCC(=O)O)NC(=O)[C@H](CCCNC(=N)N)NC(=O)[C@H](C)NC(=O)[C@H](C)NC(=O)[C@H](C)NC(=O)[C@H](CCC(=O)O)NC(=O)[C@H](CCCNC(=N)N)NC(=O)[C@H](C)NC(=O)[C@H](C)NC(=O)[C@H](C)NC(=O)[C@H](CCC(=O)O)NC1=O | cis-to-trans reversion, UV-Vis absorbance | 10 mM phosphate buffer | pH 7.0, 37 °C, with: 365 nm irradiation |  | thermal relaxation half-life | 4.9 ± 0.2 min
C[C@@H](NC(=O)[C@@H](CCC(N)=O)NC(=O)[C@@H](C)NC(=O)[C@@H](CCCCN)NC(=O)[C@@H](CCC(N)=O)NC(=O)[C@@H](C)NC(=O)[C@@H](CCCCN)NC(=O)[C@@H](CCC(N)=O)NC(=O)[C@@H](C)NC(=O)[C@@H](CCC(N)=O)NC(=O)[C@@H](CCCCN)NC(=O)[C@@H](C)NC(=O)[C@@H](CCC(N)=O)NC(=O)[C@@H](CCCCN)NC(=O)[C@@H](C)NC(=O)[C@@H](CCC(N)=O)NC(=O)[C@@H](C)NC(=O)[C@@H](CCCCN)NC(=O)[C@@H](CCC(N)=O)NC(=O)[C@@H](C)NC(=O)[C@@H](CCCCN)NC(=O)[C@@H](CO)NC(=O)[C@@H](Cc1ccc(O)cc1)NC(=O)CNC(=O)CNC(=O)CN)C(=O)N[C@H](CCCCN)C(=O)N[C@H](CCC(N)=O)C(=O)N[C@H](C)C(=O)N[C@H](CCCCN)C(=O)N[C@H](CCC(N)=O)C(=O)O |  | human IAPP fibrils | 1 h, room temperature | reference: 1 M NaCl over PBS | binding ratio | 0.3
C[C@@H](O)[C@H](NC(=O)[C@H](CCCCN)NC(=O)[C@H](Cc1c[nH]c2ccccc12)NC(=O)CN)C(=O)N[C@@H](CCCNC(=N)N)C(=O)NC(C)(C)C(=O)N[C@@H](CCCNC(=N)N)C(=O)NC(C)(C)C(=O)N[C@H](C(=O)N[C@@H](CO)C(=O)N[C@@H](Cc1c[nH]cn1)C(=O)N[C@@H](Cc1ccc(O)cc1)C(=O)NCC(=O)O)[C@@H](C)O | platelet aggregation | human whole blood | with: collagen I |  | IC50 | 1000 nM
COc1ccc([N+](=O)[O-])cc1NC(=O)CCC(=O)[O][Zn][O]C(=O)CCC(=O)Nc1cc([N+](=O)[O-])ccc1OC.c1ccncc1 | antioxidant activity |  | 15.62 µg/mL |  | DPPH scavenging | 61.6 ± 0.78%
C[C@H](NC(=O)[C@H](CCC(N)=O)NC(=O)[C@H](CCCCN)NC(=O)[C@H](C)NC(=O)[C@@H]1CCCN1C(=O)[C@H](C)NC(=O)[C@H](CCCCN)NC(=O)[C@H](CCC(N)=O)NC(=O)[C@H](C)NC(=O)[C@H](CCCCN)NC(=O)[C@H](CCC(N)=O)NC(=O)[C@@H]1CCCN1C(=O)[C@H](CCC(N)=O)NC(=O)[C@H](CCCCN)NC(=O)[C@H](C)NC(=O)[C@H](CCC(N)=O)NC(=O)[C@H](CCCCN)NC(=O)[C@H](C)NC(=O)[C@@H]1CCCN1C(=O)[C@H](C)NC(=O)[C@H](CCCCN)NC(=O)[C@H](CCC(N)=O)NC(=O)[C@H](C)NC(=O)[C@H](CCCCN)NC(=O)[C@H](CO)NC(=O)[C@H](Cc1ccc(O)cc1)NC(=O)CNC(=O)CNC(=O)CN)C(=O)N[C@@H](CCCCN)C(=O)N[C@@H](CCC(N)=O)C(=O)O |  | rVλ6Wil fibrils | 1 h, room temperature, 0.05% Tween-20 | reference: 1 M NaCl over PBS | binding ratio | 0.01
CCOP(=O)(CC(=O)Nc1ccc(S(=O)(=O)N(CC(N)=O)c2ccc(N(CC(N)=O)S(=O)(=O)c3ccc(OC)cc3)c3ccccc23)cc1)OCC | Y maze | APP/PS1 mice | intragastric, 40 mg/kg, 60 days, lentivirus intracerebroventricular | reference: untreated APP/PS1 | spontaneous alternation | increased
CCN(Cc1ccccc1)C(=O)CCc1nc(CN2CCN(C(=O)Cc3ccc(OC)c(OC)c3)CC2)no1 | current clamp | L4-L6 DRG neurons, rat CCI model | 1 µM, with: 500 pA current injection |  | action potential amplitude | 106 ± 1.14 mV
Cc1nc(C)c(C=[N+]([O-])C(C)(C)C)nc1C | stereological counting | mouse MPTP model, substantia nigra | 30 mg/kg | increase | TH-positive neuron count | 27.1%
CC[C@H]1c2cc3[nH]c4c(c3C)C(=O)[C@H](C(=O)OC)c4c3nc(cc4[nH]c(cc(n2)[C@@H]1C)c(C(C)=O)c4C)[C@@H](C)[C@@H]3CCC(=O)NCC(=O)N[C@H](CC(=O)O)C(=O)N[C@H](CCC(=O)O)C(=O)N[C@@H](C(=O)N[C@H](CC(=O)O)C(=O)NCC(=O)N[C@H](CO)C(=O)NCC(=O)N[C@H](CCCCNC(=O)CC[C@H](NC(=O)c1ccc(NCc2cnc3nc(N)[nH]c(=O)c3n2)cc1)C(=O)O)C(N)=O)C(C)C |  | nude mouse KB xenograft | intravenous, 25 nmol, folate receptor dependent | reference: HT-1080 xenograft | tumour fluorescence | increased
C=C(NC(=O)C(=C)NC(=O)c1csc(C2=NC3c4csc(n4)C4NC(=O)c5csc(n5)C(C(C)(O)C(C)O)NC(=O)C5CSC(=N5)C(=CC)NC(=O)C(C(C)O)NC(=O)c5csc(n5)C3(CC2)NC(=O)C(C)NC(=O)C(=C)NC(=O)C(C(C)CC)NC2C=Cc3c(C(C)O)cc(nc3C2O)C(=O)OC4C)n1)C(N)=O (centres unmarked) | protein synthesis, inhibitor, coupled transcription-translation | Escherichia coli S30 extract |  | reference: thiostrepton A | IC50 fold change | > 10 fold
CC[C@H](C)[C@H](NC(=O)[C@@H](NC(=O)[C@H](CC(=O)O)NC(C)=O)[C@@H](C)O)C(=O)N[C@@H](CCCNC(=N)N)C(=O)N[C@@H](CC(C)C)C(=O)N[C@@H](CC(C)C)C(=O)N[C@@H](Cc1ccccc1)C(=O)N[C@@H](CCC(N)=O)C(=O)N[C@@H](CC(C)C)C(=O)N[C@@H](CCSC)C(=O)N[C@@H](CCCNC(=N)N)C(=O)N1CCC[C@H]1C(=O)N1CCC[C@H]1C(=O)N[C@@H](CC(N)=O)C(=O)N[C@@H](CCSC)C(=O)N[C@H](C(=O)N1CCC[C@H]1C(=O)N[C@@H](C)C(=O)N[C@H](C(=O)N[C@@H](CC(N)=O)C(=O)N[C@@H](C)C(N)=O)C(C)C)[C@@H](C)O | refers to: HA-52 tetramer | antigen-experienced tetramer+ CD4 T cells, healthy adults, HLA-DRB1*0101 | dose not given |  | α4β7− CCR9+ cells | 0%
CC1(C)SSC(C)(C)[C@@H](NC(=O)[C@@H](N)Cc2ccc(O)cc2)C(=O)NCC(=O)N[C@@H](Cc2ccccc2)C(=O)N[C@H]1C(=O)O | analgesia, radiant heat tail flick | CD1 mouse | intracerebroventricular, 15 min |  | ED50 | 0.4 µg
COC[C@@H](NC(C)=O)C(=O)NCc1ccc(OCc2ccc(OC(F)(F)F)cc2)cc1 | maximal electroshock seizure test | mouse | ip, time of peak effect |  | ED50 | 8.3 mg/kg
